Results gathered from unrelated publications.
Each line is one published result; not all experiments were run side by side. Several values in a cell are separate wells, animals, samples, runs or records.
CDK5: Cyclin-dependent kinase 5 (CDK5, Homo sapiens, UniProt Q00535)
CDK5 with p25: Cyclin-dependent kinase 5, with p25 (CDK5, Homo sapiens, UniProt Q00535)
CDK5 with p35: Cyclin-dependent kinase 5, with p35 (CDK5, Homo sapiens, UniProt Q00535)

Structure (SMILES)	target	assay	test system	conditions	scale	measurement	value
COc1c(Cl)cccc1Nc1c(-c2ccncc2C#C[C@@]2(C)CCCN2C(=O)/C=C/CN(C)C)[nH]c2c1C(=O)NCC2	CDK5	binding, competition with immobilised ligand	–	3 µM	–	remaining binding	95%
CN1C[C@@H](c2c[nH]c3cc(Br)ccc23)NC[C@@H]1c1c[nH]c2cc(Br)ccc12	CDK5 with p25	–	–	10 µM	reference: control	remaining activity	101%
COCC12C(=O)NC3C4(C(OC)CC1O)C1CC5(O)C(OC)C(O)C(OC(C)=O)(C1C5OC(=O)c1ccccc1)C3(O)C(OC)C24 (stereo not shown)	CDK5 with p25	kinase activity, inhibitor, ProQinase kinase profiling	–	25 µM	reference: control	remaining activity	97% and 109%
O=c1c(-c2ccc(Cl)c(CN3CCOCC3)c2)coc2cc(O)ccc12	CDK5 with p35	enzyme activity, inhibitor	–	1 µM	–	remaining activity	105%
COc1ccc(NC(=O)Nc2ccc3c(c2)C(=O)N(C(C)CO)CC(C)C(CN(C)Cc2ccc4c(c2)OCO4)O3)cc1 (stereo not shown)	CDK5 with p35	kinase activity, KinaseProfiler	–	0.03 µM, species human	reference: control	remaining activity	97%
Nc1ncc(-c2cc(-c3cnn(CC(F)(F)F)c3)ncc2F)nc1C(=O)NC1CNCC(F)C1 (stereo not shown)	CDK5 with p25	enzyme activity	–	1 µM	reference: DMSO control	remaining activity	91.1%
O=C(Cc1ccc(OCc2ccccc2)cc1)NC1(C(=O)O)CCN(C(=O)c2ccc(-c3cccc(Cl)c3)cc2)CC1	CDK5 with p35	enzyme activity, inhibitor	–	10 µM	–	activity vs control	136%
CNC1C[S+]2CC[S+]3CC[S+](C1)[Ru-4]321([N]=C=S)[n]2c3ccc(OC)cc3c3c4c(c5cc(F)c[n+]1c5c32)C(=O)NC4=O (stereo not shown)	CDK5	KinomeScan	–	0.1 µM	reference: untreated	remaining binding	88%
CCc1nnc(Nc2cnc([C@@H]3CCCN(C(=O)CCc4cccnc4)C3)cn2)s1	CDK5 with p25	enzyme activity, inhibitor, ADP detection	–	1 µM	–	activity vs control	115%
C=CC(=O)Nc1cccc(-c2cnc3[nH]cc(C(=O)NC(C)(C)C)c3n2)c1	CDK5	kinase activity	–	0.1 µM	–	inhibition	14% and 16%
Cc1cc(C)nc(Nc2ccc([C@@H]3CCCN(C(=O)/C=C/c4c(C)nn(C)c4C)C3)nc2)n1	CDK5 with p35	enzyme activity, inhibitor, ADP detection	–	1 µM	–	activity vs control	101%
N[C@H]1CC[C@H](Nc2nccc(-c3cccnc3Oc3ccc(NC(=O)NC4CC4)c4ccccc34)n2)CC1	CDK5	kinobead competition pulldown	HEK293/HCT116 lysate mixture	10 µM, 1 h, 4 °C	lower = stronger competition	log2 LFQ intensity	29 and 28.9 and 28.8 and 28.7
Cc1cnc2nc1Nc1cccc(c1)COC/C=C/COCc1cc(ccc1OCCN1CCOCC1)N2	CDK5	binding	–	0.1 µM	–	remaining binding	100%
Cc1cccc(O[C@H]2CCC[C@@H](C(C)CNCc3ccncc3)C2)c1 (relative stereo)	CDK5 with p25	enzyme activity, inhibitor	–	1 µM	–	inhibition	0%
Cc1cc(C)nc(Nc2ccc([C@@H]3CCCN(C(=O)/C=C/c4csc(C)n4)C3)nc2)n1	CDK5 with p25	enzyme activity, inhibitor, ADP detection	–	1 µM	–	activity vs control	92%
CNC(=O)C[C@H](Cc1ccc(C#N)cc1)NC(=O)c1cc(-c2ccc(CN[C@H](C)c3ccc(C)cc3)o2)ccc1Cl	CDK5 with p35	enzyme activity, inhibitor	–	1 µM	–	activity vs control	104%
O=C=[N][Ru-4]123([n]4c5ccc(O)cc5c5c6c(c7cc(F)c[n+]1c7c54)C(=O)NC6=O)[S+]1CC[S+]2CC[S+]3CC1 (stereo not shown)	CDK5 with p35	enzyme activity	–	100 nM, human enzyme, with: 10 µM ATP	reference: untreated	remaining activity	98%
CNC(=O)C1CCN(c2cc(C)c(F)cc2NC(=O)c2ccc(-c3cc(O)ccc3C)c(C)c2)CC1	CDK5	binding, competition with immobilised ligand	–	1 µM	–	remaining binding	100%
Nc1ncc2c(n1)-c1c([nH]c3ccc(C4=CCOCC4)cc13)CCC2	CDK5	binding, competition with immobilised ligand	–	1 µM	–	remaining binding	93%
C=CC(=O)N1Cc2nc(-c3cc(-c4cc(Cl)cnc4Cl)c(F)cc3F)n(-c3ccncn3)c2C1	CDK5 with p25	cell-free assay, inhibitor	–	1 µM	–	inhibition	3.2%
Cc1nn(C)c(C)c1/C=C/C(=O)N1CCC[C@H](Cc2ccc(Nc3ccccn3)nn2)C1	CDK5 with p35	enzyme activity, inhibitor, ADP detection	–	1 µM	–	activity vs control	102%
C[C@]1(O)CCCN(c2nc(Nc3ccc(S(=O)(=O)N[C@H]4CC[C@H](CN5CCN(c6ccc(C7CCC(=O)NC7=O)cc6F)CC5)CC4)cc3)ncc2C(F)(F)F)C1 (stereo partly shown)	CDK5	binding, competition with immobilised ligand	–	1 µM	–	remaining binding	16%

Some of these lines once more:
Structure (SMILES)	target	assay	test system	conditions	scale	measurement	value
Cc1cc(C)nc(Nc2ccc([C@@H]3CCCN(C(=O)/C=C/c4csc(C)n4)C3)nc2)n1	CDK5 with p25	enzyme activity, inhibitor, ADP detection	–	1 µM	–	activity vs control	92%
